Assay results pooled from the literature.
Every numbered part comes from another study and shows a few of its results, in no order.

Study 1
Target: RING finger protein unkempt homolog, zinc fingers 1-6, GST-SBP tag (UNK, Homo sapiens, UniProt Q9C0B0, residues 30-357)
Technique: RNA Bind-n-Seq
Molecule type: RNA
Matrix: in vitro
Tested at: not given
Setting: RNA with constant flanks, human and mouse sites, ends assumed
Baseline: input RNA pool
Direction: higher = stronger binding
All sequences stand within: GGGAGUUCUACAGUCCGACGAUC … CAACAGAGGAUUGAGCAUCA
Target sequence (chain): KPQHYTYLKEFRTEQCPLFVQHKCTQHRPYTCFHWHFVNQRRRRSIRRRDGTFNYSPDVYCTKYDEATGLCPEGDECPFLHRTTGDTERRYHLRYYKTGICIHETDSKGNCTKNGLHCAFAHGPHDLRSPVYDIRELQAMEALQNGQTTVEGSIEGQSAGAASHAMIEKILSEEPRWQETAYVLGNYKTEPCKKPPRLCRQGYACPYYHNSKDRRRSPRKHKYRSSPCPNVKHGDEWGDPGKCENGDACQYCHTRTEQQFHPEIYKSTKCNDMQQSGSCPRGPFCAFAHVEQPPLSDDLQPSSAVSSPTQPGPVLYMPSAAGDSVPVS
| Sequence | bound/input enrichment [ratio] |
| --- | --- |
| UUCUCCAAUGUUACGCUCGCUUGCCUAGCUUUACGAAUAUUGCUUUGUUUUCUGUUUAUGCAUAGCCUUGAUUUGUUUGACUCCCCUCCCCCCAUUUACAUGCAUGCAAUCAGACAGGCC | 2.15 |
| UACUCAGACAAGUACUUCGAUGAGCACUACGAGUACCGGCAUGUCAUGUUACCCAGAGAACUCUCUAAACAAGUACCCAAAACUCAUCUGAUGUCCGAAGAGGAGUGGAGGAGACUUGGU | 0.0559 |
| GAUCGUCAUAUUCCUUUAGAUGAGCCAAUUGAUCUUCUGAAUGUGGCUUUUGUGCCUAAACAAAAAACAGGGCUACCUAUUCCUAACAUAGAAAGAAAACAGCAGAACCACCAUGAGAUC | 0.753 |
| UCCAGAAGCACUGCGUAUGAAGAUUAUUACUACCACCCUCCUCCUCGCAUGCCACCUCCAAUUAGAGGUCGGGGUCGUGGUGGGGGGAGAGGUGGAUAUGGCUACCCUCCAGAUUACUAC | 0.107 |
| GUGCUGACUUGGGAUUUUUAACCUUAUAUAUCUUUUUCCUUUAUUCAAAACAAAACAAUUUUUAGCACACUGAAAAAAAAAAAAGCCAAAUGUUUUGUGCCUUUCUAAGGCAGCGCUGUA | 6.02 |
| GAUUAAUACUUCUUGAAUGAUAAAAUCAUUUUGCCAUGUUAGAAGACAUUUCCGAAGAAGACAUUUGGGAAUACAAAUCUAAAAGAAAACCAAAACGAGUUGAUCCAAAUAAUGGCUCUA | 0.179 |
| AGAGACAUGCUUCGACGAAUUAAGGAAGAUGAAGAUGAUAAAACAGUUUUGGAUCUUGCUGUGGUUUUGUUUGAAACAGCAACGCUUCGGUCAGGGUAUCUUUUACCAGACACUAAAGCA | 0.223 |
| UUAUCCAAGACUCAACGAAAGACUCCAACGGUUAUUCAUAAACAUUAUCAAAUUCAUCGGAUUCGACAUUUUUAUAUGAGAAAAGUCAAAUUUACUCAACAGAAUUACCAUGACAGACUG | 0.149 |
| GAUGAAGAAGGUGAAGGGGAUGAUGGUUAUGAACAAAUUUCCAGUGAUGAAGAUGGAAUUGCUGACUUGGAACGUGAAACAUUUAAGUAUCCAAACUUUGAUGUUGAAUACACUGCUGAA | 0.143 |
| AAAAGAAAUUUCCAGCUAACAUUUUUAAAUCAUGAUGUUGUCAAAAUCUCUCCAAAAUCAGUUAGAAAUAAGCUUUUGGAAAGUCAAAGUAAAAAGAAAAUUCAUGGAAAGAGGGUGACA | 1.56 |
| CUUAGUCGUGUCACUCUUCUUGAAACAGAAAUGCUUUUGUCUAAAAAGAAUGAUGAAUUUAUAGAGUUUAAUGAAGUUAGUGAAGACUACGCUUCUUGUAGUGACAUGGACCUUCUGAAU | 0.184 |

Study 2
Target: Histone acetyltransferase KAT6A, winged helix 1, GST fusion (KAT6A, Homo sapiens, UniProt Q92794, residues 1-85)
Technique: protein binding microarray
Molecule type: double-stranded DNA, one strand shown
Matrix: in vitro
Tested at: not given
Setting: 8-mer, flanks averaged, mean of 2 arrays, mostly near background
Baseline: not given
Direction: higher = stronger binding
Residues (chain): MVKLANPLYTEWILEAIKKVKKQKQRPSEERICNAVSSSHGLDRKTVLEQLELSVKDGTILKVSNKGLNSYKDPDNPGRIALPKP
| Sequence | E-score |
| --- | --- |
| CCCGCGTC | 0.316 |
| CACTTCCC | -0.0283 |
| AAGCAACA | -0.178 |
| ATGGACAA | -0.237 |
| AGGTTGGG | -0.165 |
| CGAACCGA | 0.123 |
| CGTATTAC | 0.15 |
| CGCGAATA | 0.204 |
| ACCTCCTC | -0.114 |
| ATGTTGTA | -0.142 |
| CGCAAATC | 0.206 |
| CGCTCTTC | 0.152 |
| TGGTTACA | -0.0555 |
| AGTTCCCG | 0.313 |
| GGCTGCCA | 0.0137 |
| GTTATCAA | -0.144 |
| CAATCGTC | -0.0986 |
| ATATTCTG | -0.0588 |
| GAATTAGC | -0.116 |
| TAACCACA | -0.121 |
| CTCTCATA | -0.243 |
| ATCCGCGC | 0.386 |
| ACCTTCGC | 0.181 |
| CAAGGACA | -0.175 |
| CAGCACTG | -0.0375 |

Study 3
Target: RNA binding protein fox-1 homolog 2, RRM domain, GST-SBP tag (RBFOX2, Homo sapiens, UniProt O43251-10, residues 100-194)
Technique: RNA Bind-n-Seq
Molecule type: RNA
Matrix: in vitro
Tested at: 365 nM
Setting: natural RNA segment, single round, ends assumed
Baseline: no-protein control
Direction: higher = stronger binding
All sequences stand within: GGGAGUUCUACAGUCCGACGAUC … UGGAAUUCUCGGGUGCCAA
Target sequence (chain): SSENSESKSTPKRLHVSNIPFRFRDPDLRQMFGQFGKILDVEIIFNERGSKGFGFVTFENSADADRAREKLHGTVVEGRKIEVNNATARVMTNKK
| Sequence | RBNS enrichment (R) |
| --- | --- |
| UUUCUCCCACAGGCCUCUCUUUCUUUCUAGGUUGCUGGGGAGAAAUGGGUACCCUAUGAUCCCCCUCCCCUUCUCCUCCAGUAAAUACCUGGAAGAGGGAACCUGAAUCC | 0.382 |
| AAUUUUAAGUGGUAAGCAUUUUGCAUUAAAAUAUUCCUAUAAUAUUUUGUCGCUGUUCUUUGUCCUUUAUUCUUUGUUUACUCUCUCGAAAAUAAAAGGGCUAAACUAUU | 0.834 |
| GAGGCAGGUGGAUUUCUAAGUUCGAGGCCAGCCUGGUCUACAGAGUGAGUUCCAGGACAGCCAGGGCUACACAGAGAAACCCUGUCUCAAAAAAAAAAAAGAAAGAAAGA | 0.284 |
| UAUAUAACAACAUAGAAUAACAACAACAGAAAAUGAUAAGUACAGAUAAAUGGUUAAUUGUUGGGGCUGGGAAAAUGGCCCAGUGGUUAAAAGUAUUCAUUCCUCUCGAG | 0.773 |
| CGGCUCACGCUUACCUCAACCAUCCUGGCUGCGGCGUCUGUCUGAACCACGCGGGGGCCUUGAGGGACGCUUUGUCUGUCGUGAUGGGGCAAGGGCACAAGUCCUGGAUG | 0.456 |
| AAGGCUGGCAUCAUCCUAUUUCCCACAGGCUAACCCAAGGGAUGCUCUGUGCCUUUCCUGGGGAGGGAAGGGGAUGAACUGGUAGAUUUGAAAGCAGUAUGGCUUCUUCU | 0.247 |
| AUUAGCAGAACGACAGCCCCUUCCUCCUCCUCCCUCCUUCCCAUCCCUACUCAUUAGCUCCCUGCUCCUGGGAUGCUUCCCAAGCAGCCCAGGCCUCUAGCCUCCAUGGC | 0.538 |
| ACUCAGCUGUACCUGUCUGCCUGGACUGUCCCCUGUCCCCGCAUCUCCCCUGGGACCAGCUGGAGGGCCACAUGCACACACAGCCUAGCUGCCCCCAGGGAGCUCUGCUG | 0.752 |
| UUUUAAUUCACCUCUUCUUUUCACCUCUUUAACCACUCCUCAGGAACAGAACACUUCUAGGACUGGGGGUCUUUUAGCUCCAUAAGCAAGUGAGCAGAUGGGACAAGUUA | 0.241 |
| CUGGUCUUACUGUCCAUGUGUGUUUGGGCCCGGAUGGUCAGGGUGGGGAGCAGGGACGGCCAUGGGCACGCCUGGCCACGCUUUACCGACUGCUGACCCCCUGGGCCAGG | 0.561 |
| GGGUUUGACCAGGUUAGGACUAUUCUUUCUGUGAAGGAUUGUUUGAUUGUAGUAACUCUAUUGGCAUCUUGUAAAUUGGCUCAUUUCCUACGUGAUGUACAUAGAAUAUU | 0.518 |
| CCUCUUCUCAAGGCCAUGUAAGUUGCCCAUCUCUACCUGGCUGUGGACAAAAGGUUAUCUGCUCUUGGCCAUCUGGUGGUGGUGGCGGCCCAGAGUCUGAAGAAAUGGCA | 0.913 |

Study 4
Target: Ras GTPase-activating protein-binding protein 1, RRM domain (G3BP1, Homo sapiens, UniProt Q13283)
Sequence of UniProt Q13283 (whole entry, looked up): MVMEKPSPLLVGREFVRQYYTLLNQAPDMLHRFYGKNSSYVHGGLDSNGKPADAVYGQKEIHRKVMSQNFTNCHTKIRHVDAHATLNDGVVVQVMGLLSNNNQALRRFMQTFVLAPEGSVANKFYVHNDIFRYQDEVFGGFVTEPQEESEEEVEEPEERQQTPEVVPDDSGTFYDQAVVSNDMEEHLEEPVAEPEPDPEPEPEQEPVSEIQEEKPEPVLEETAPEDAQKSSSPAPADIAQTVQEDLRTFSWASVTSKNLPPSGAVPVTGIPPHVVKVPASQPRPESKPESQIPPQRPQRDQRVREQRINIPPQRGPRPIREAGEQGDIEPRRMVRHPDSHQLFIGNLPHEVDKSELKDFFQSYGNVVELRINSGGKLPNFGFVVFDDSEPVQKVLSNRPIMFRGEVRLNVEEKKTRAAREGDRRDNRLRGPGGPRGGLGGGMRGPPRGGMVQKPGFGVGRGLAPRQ
Technique: RNA Bind-n-Seq
Molecule type: RNA
Matrix: in vitro
Tested at: 1 µM
Setting: whole 134-nt RNA, ends assumed
Together with: 150 mM KCl
Baseline: input library
Direction: higher = stronger binding
All sequences stand within: GGGAGUUCUACAGUCCGACGAUC … UGGAAUUCUCGGGUGUCAAGG
| Sequence | log2 enrichment |
| --- | --- |
| CUCAAGUCCUGUGCUACACAUCGUAUGUACCGAAUCGGCGGGGCGGGGCGGGGAAAGUAUUAUGUUACGCCGUUCGGAUCUGCACUUCCA | 0.149 |
| AGUCCUGUGCUACACAUCGUAUGUACCGAAUCGGUUUUUGGUUUUUGGUUUUUGGGGAAAGUAUUAUGUUACGCCGUUCGGAUCUGCACU | -0.119 |
| CAAGUCCUGUGCUACACAUCGUAUGUACCGAAUCGGGGAGGGGAAAGGGGAGGGGAAAGUAUUAUGUUACGCCGUUCGGAUCUGCACUUC | 1.31 |
| CACAGACAACGCGCACCCACACAGACACAGAGGGAAGGGGUUGGGAUGGGGACAGGGUGCACAGCAGGGCGGGGUAGGACCCCAGCCCCU | -0.187 |
| CUCAAGUCCUGUGCUACACAUCGUAUGUACCGAAUCGGAAGGGGAAGGGAAGGAAAGUAUUAUGUUACGCCGUUCGGAUCUGCACUUCCA | -0.211 |
| AAGUCCUGUGCUACACAUCGUAUGUACCGAAUCGGGGCCCGGGGCCCGGCCCGGGGAAAGUAUUAUGUUACGCCGUUCGGAUCUGCACUU | -1.22 |
| UCCUGUGCUACACAUCGUAUGUACCGAAUCGGGGCCCCCGGGGCCCCCGGGCCCCCGGGGAAAGUAUUAUGUUACGCCGUUCGGAUCUGC | -0.702 |
| UGGGAGGUGGAUUUUGUUUAUUUUUUUAGCUCAUUUCCAGGGAUGGGAAUUUUUUUUUAAUAUGUGUCAUGAAUAAAGUUGUUUUUGAAA | 1.16 |
| CACAGACAACACGCACCCACACAAACACAGAGGGAAGGGGUUGGGAUGGGGACAGGGUGCACAGCAGGGCGGGGUAGGACCCCAGCCCCU | -0.123 |
| CUGUGCUACACAUCGUAUGUACCGAAUCGGAAAAAAAGGGGAAAAAAAGGGGAAAAAAAGGGAAAGUAUUAUGUUACGCCGUUCGGAUCU | 0.183 |
| UAGUGAUGAAAAAUUUCUCCCUUCUAGGUUUCCCUUGGGGGCUUUGAAAUAACACCACCAGUGGUCUUAAGGUUGAAGUGUGGUUCAGGG | -0.274 |
| UUCAGUUAUUCAAGCGGAGAAAUGUUGCUACAGCAGAAGAAGAAACAGAAGAAGAAGUUAUGUCAGAUGGAGGCUUUCAUGAGGCUCAGA | -0.267 |
| UUACACAAACCUGCAGGUGAAGACAGGCCAGCGGACCCUCAUCAACCCCAAGCCCUGUGGCCAGUUUUGCUGCUGUGAAGUGCUGGGCUG | -0.25 |
| ACCAUGCAGGUGGGCAUCUUUGGGAAGUGGGGCAAGGGGGGAAAAGGGAGGGGGGUAACACUUUGGGAACAGGUGGUCCCAGGUCGUUUC | -0.25 |
